Measurements of several laboratories.
“And” joins repeats or separate records; there may be more than shown. ± gives the spread as reported.
Chain of UniProt Q96SW2 (whole entry, looked up): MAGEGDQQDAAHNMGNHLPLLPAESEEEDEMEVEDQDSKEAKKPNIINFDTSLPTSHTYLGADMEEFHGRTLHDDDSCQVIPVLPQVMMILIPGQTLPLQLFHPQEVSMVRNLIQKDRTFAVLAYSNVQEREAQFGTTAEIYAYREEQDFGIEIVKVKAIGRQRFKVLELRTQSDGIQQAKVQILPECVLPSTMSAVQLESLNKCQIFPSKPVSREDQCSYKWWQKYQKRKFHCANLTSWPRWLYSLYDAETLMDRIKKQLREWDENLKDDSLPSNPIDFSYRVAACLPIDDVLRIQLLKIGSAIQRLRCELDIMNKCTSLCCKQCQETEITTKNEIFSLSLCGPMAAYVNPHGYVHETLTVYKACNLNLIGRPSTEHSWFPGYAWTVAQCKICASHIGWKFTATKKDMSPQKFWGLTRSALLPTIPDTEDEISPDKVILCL
Chain of UniProt P48729 (whole entry, looked up): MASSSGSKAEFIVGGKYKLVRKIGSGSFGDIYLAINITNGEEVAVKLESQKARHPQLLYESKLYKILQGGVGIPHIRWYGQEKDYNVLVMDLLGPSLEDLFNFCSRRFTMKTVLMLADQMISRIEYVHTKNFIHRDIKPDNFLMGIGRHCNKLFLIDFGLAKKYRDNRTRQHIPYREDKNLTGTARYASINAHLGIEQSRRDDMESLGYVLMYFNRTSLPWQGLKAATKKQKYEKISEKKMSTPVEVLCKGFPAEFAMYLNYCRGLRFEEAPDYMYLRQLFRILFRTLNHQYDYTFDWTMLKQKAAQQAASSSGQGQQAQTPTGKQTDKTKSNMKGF

| Structure (SMILES) | tested on | test | system | conditions | how to read | endpoint | value |
| --- | --- | --- | --- | --- | --- | --- | --- |
| CC(C)C[C@H](NC(=O)C[C@H](O)[C@H](CC(C)C)NC(=O)[C@H](Cc1c[nH]cn1)NC(=O)CNC(=O)[C@@H](NC(=O)[C@H](C)NC(=O)[C@H](Cc1c[nH]c2ccccc12)NC(=O)[C@H](CCC(N)=O)NC(=O)[C@@H](Cc1ccccc1)NC(=O)COCCOCCNC(=O)CCC(C(=O)O)N1CCN(CC(=O)O)CCN(CC(=O)O)CCN(CC(=O)O)CC1)C(C)C)C(N)=O (stereo partly drawn) [lutetium-177 labelled] |  |  | BALB/c nu/nu mice, lung | intravenous, 50 pmol, 1 h, added: PA 300 µg |  | tissue uptake | 0.6 ± 0.1 %ID/g |
| [Cl-].[Cl-].[Pt+2].[Ru+2].c1ccc(-c2nccnc2-c2ccccn2)nc1.c1cnc2c(c1)ccc1cccnc12.c1cnc2c(c1)ccc1cccnc12 | pcDNA supercoiled plasmid | agarose gel electrophoresis |  | 50 µM, photoinduced cleavage, added: 0.1 µM pcDNA |  | nicked circular DNA | 20.6% |
| c1coc(-c2n[nH]cc2-c2ccnc3ccccc23)c1 | MPS1 (Candida albicans) | kinase binding, MIB/MS competition | Candida albicans lysate | 1 µM | relative to: DMSO | log2 fold change | 0.02 |
| CCn1cc(-c2cc(Cn3ccnc3)cc3c2CCN([C@H](c2cc(OC)ccn2)C2CC2)C3=O)c(C(F)(F)F)n1 | NCI-H446 | cell growth, inhibitor |  | 120 h |  | EC50 | > 30 µM |
| CC[S+]([O-])c1nc(-c2ccccc2)cc(C(F)(F)F)n1 (stereo not drawn) | importin beta-1 | SREBP1 nuclear import, high content imaging | HeLa Kyoto | 1.58 µM, 3 h, added: glucose and MG132 |  | cells with nuclear SREBP1 | 94.7% and 88.7% and 92.6% and 85.8% |
| Cn1cc(-c2ccc(-c3cncc(Cl)c3N3CCC4(CCNC4=O)CC3)cc2)cn1 | COLO 205 | gene expression, microarray, item: TGFB3 mRNA |  | concentration not given, 6 h | relative to: untreated cells | log2 fold change | -2.18 |
| CC(C)[C@H](NC(=O)[C@H](Cc1ccc(O)cc1)NC(=O)[C@H](Cc1ccc(O)cc1)NC(=O)[C@@H]1CCCN1C(=O)[C@H](CCC(=O)O)NC(=O)[C@H](CCC(=O)O)NC(=O)[C@H](Cc1c[nH]c2ccccc12)NC(=O)[C@@H]1CCCN1C(=O)[C@@H](NC(=O)[C@H](CCC(N)=O)NC(=O)c1ccc2c(c1)C(=O)OC21c2ccc(O)cc2Oc2cc(O)ccc21)C(C)C)C(=O)N[C@H](C(=O)N[C@@H](CCCCN)C(=O)N[C@@H](CCCCN)C(=O)N[C@@H](CO)C(=O)N[C@@H](CO)C(=O)NCC(=O)NCC(N)=O)C(C)C |  |  | human, plasma | intravenous infusion, 200 mg, 0.08333 h |  | plasma concentration | 1230 ng/mL |
| Oc1ccccc1-c1n[nH]cc1-c1ccnc2ccccc12 | KIN3 (Candida albicans) | kinase binding, MIB/MS competition | Candida albicans lysate | 1 µM | relative to: DMSO | log2 fold change | -0.01 |
| C=CCCCCCCCCCCCC(O)CC(O)COC(C)=O (stereo not drawn) | human iPSC-derived cardiomyocytes | MyBP-C/MYH ratio, plate-normalised SD score |  | concentration not given, primary screen | direction not given | activity score | 6.6 |
| CC(Nc1nc(N2CCCC2)nc2ccccc12)c1ccccc1 (stereo not drawn) | importin beta-1 | SREBP1 nuclear import, high content imaging | HeLa Kyoto | 0.05 µM, 3 h, added: glucose and MG132 |  | cells with nuclear SREBP1 | 87.2% and 88.2% and 81.5% and 85.7% |
| N=C(N)NCCC[C@@H](NC(=O)CCOCCOCCNC(=O)[C@H](CCCCNC(=O)CC[C@H](NC(=O)c1ccc(NCc2cnc3nc(N)[nH]c(=O)c3n2)cc1)C(=O)O)NC(=O)CO/N=C/[C@H](F)[C@@H](O)[C@H](O)[C@H](O)CO)C(=O)NCC(=O)N[C@H](CC(=O)O)C(N)=O [fluorine-18 labelled] |  |  | female nude mice, MDA-MB-231 xenograft, intestine without contents | dose not given, 45 min to 2.5 h |  | intestinal radioactivity | ≤ 1.6 %ID/g |
| CCOC(=O)O[C@]1(C(=O)COC(=O)CC)CC[C@H]2[C@@H]3CCC4=CC(=O)C=C[C@]4(C)[C@H]3[C@@H](O)C[C@@]21C | human iPSC-derived cardiomyocytes | MyBP-C/MYH ratio, plate-normalised SD score |  | concentration not given, primary screen | direction not given | activity score | 3.9 |
| CC(C)C[C@H](NC(=O)C[C@H](O)[C@H](CC(C)C)NC(=O)[C@H](Cc1c[nH]cn1)NC(=O)CNC(=O)[C@@H](NC(=O)[C@H](C)NC(=O)[C@H](Cc1c[nH]c2ccccc12)NC(=O)[C@H](CCC(N)=O)NC(=O)[C@@H](Cc1ccccc1)NC(=O)COCCOCCNC(=O)CCC(C(=O)O)N1CCN(CC(=O)O)CCN(CC(=O)O)CC1)C(C)C)C(N)=O (stereo partly drawn) [lutetium-177 labelled] |  |  | female BALB/c nu/nu mice, liver | intravenous, 50 pmol, 24 h |  | tissue uptake | 0.12 ± 0.03 %ID/g |
| CN(C)CCC=C1c2ccccc2CCc2ccccc21 | human iPSC-derived cardiomyocytes | MyBP-C/MYH ratio, plate-normalised SD score |  | concentration not given, primary screen | direction not given | activity score | 3.3 |
| CCS(=O)(=O)c1nc(C2CC2)cc(C(F)(F)F)n1 | importin beta-1 | SREBP1 nuclear import, high content imaging | HeLa Kyoto | 0.05 µM, 3 h, added: glucose and MG132 |  | cells with nuclear SREBP1 | 81.9% and 89.2% and 84.1% and 88.2% |
| Cc1ncc(CO)c(CO)c1O | human iPSC-derived cardiomyocytes | MyBP-C/MYH ratio, plate-normalised SD score |  | concentration not given, primary screen | direction not given | activity score | 3.1 |
| COc1cnc2cccc(N3CCc4c(cc(Cn5ccnc5C)cc4-c4cn(C)nc4C(F)(F)F)C3=O)c2c1 | SNU-182 | cell growth, inhibitor |  | 120 h |  | EC50 | > 30 µM |
| NCc1cc2c(cc1F)C(=O)N(C1CCC(=O)NC1=O)C2 (stereo not drawn) | Cereblon/Casein kinase I alpha (CSNK1A1/CRBN, Homo sapiens, UniProt P48729+Q96SW2) | degrader, Western blot | Hep3B | 24 h |  | DC50 | 0.035 µM |
| Cc1nnc(NS(=O)(=O)c2ccc(N)cc2)s1 | human iPSC-derived cardiomyocytes | MyBP-C/MYH ratio, plate-normalised SD score |  | concentration not given, primary screen | direction not given | activity score | 3.6 |
| CCn1cc(-c2cc(Cn3ccoc3=N)cc3c2CCN([C@@H](C)c2cc(OC)ccn2)C3=O)c(C(F)(F)F)n1 | SNU-182 | cell growth, inhibitor |  | 120 h |  | EC50 | > 30 µM |
| Cc1cc(Nc2ccc(S(F)(F)(F)(F)F)cc2)n2nc(C(C)(F)F)nc2n1 | Plasmodium vivax |  | human Plasmodium vivax malaria patients | oral, 800 mg |  | patients with blurred vision | 0% |

Excerpt of the above:
| Structure (SMILES) | tested on | test | system | conditions | how to read | endpoint | value |
| --- | --- | --- | --- | --- | --- | --- | --- |
| CC[S+]([O-])c1nc(-c2ccccc2)cc(C(F)(F)F)n1 (stereo not drawn) | importin beta-1 | SREBP1 nuclear import, high content imaging | HeLa Kyoto | 1.58 µM, 3 h, added: glucose and MG132 |  | cells with nuclear SREBP1 | 94.7% and 88.7% and 92.6% and 85.8% |
